Results from different studies.
Each numbered part is a random draw from the data of one study; scales do not carry over between parts. Substitutions count along the parent as printed.

Block 1 — technique: protein binding microarray; molecule type: double-stranded DNA, one strand shown; matrix: in vitro; concentration: not given; reference: not given; direction: higher = stronger binding; quantity: E-score
Target: Histone acetyltransferase KAT6A, both winged helices, GST fusion (KAT6A, Homo sapiens, UniProt Q92794, residues 1-181)
Setting: 8-mer, flanks averaged, mean of 2 arrays, mostly near background
Residues (chain): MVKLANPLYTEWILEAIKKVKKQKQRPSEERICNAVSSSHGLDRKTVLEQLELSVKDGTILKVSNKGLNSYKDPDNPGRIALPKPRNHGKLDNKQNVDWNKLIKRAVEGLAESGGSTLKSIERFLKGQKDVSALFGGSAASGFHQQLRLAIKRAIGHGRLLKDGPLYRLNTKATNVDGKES
CGCGCTGA: 0.298
GAACAGTA: 0.0175
TCCACGGA: 0.237
AAGGGACA: -0.0265
ATGACGTG: -0.0317
ACCACATA: -0.148
AAGACCGG: 0.0863
GCCGATCA: 0.103
CCTAACCG: 0.0797
ATTAGGCA: -0.1
ACCGGGCT: 0.0934
CTTCCCCA: -0.13
CTTAATAA: -0.025
TAAGTCTA: -0.035
ACTTTAAA: -0.0264
AATTCCGT: 0.181
ATCAGAGC: -0.0694
CAGTTAGC: -0.0249
ACGGTTCC: 0.167
ATAGGTCG: -0.0252
AGCTCGCC: 0.0823
GAATGCGC: 0.304
ATTCACAC: -0.105
ATAATTTG: -0.0399
AAGCCACC: -0.193

Block 2 — technique: EMSA with sequencing; molecule type: double-stranded DNA, one strand shown; matrix: in vitro; concentration: 10 and 20 nM; reference: negative control set to 0; direction: higher = stronger binding; quantity: normalised bound fraction
Target: Hepatocyte nuclear factor 3-alpha (Foxa1, Mus musculus, UniProt P35582, residues 1-468, full length assumed)
UniProt P35582, sequence (whole entry, looked up): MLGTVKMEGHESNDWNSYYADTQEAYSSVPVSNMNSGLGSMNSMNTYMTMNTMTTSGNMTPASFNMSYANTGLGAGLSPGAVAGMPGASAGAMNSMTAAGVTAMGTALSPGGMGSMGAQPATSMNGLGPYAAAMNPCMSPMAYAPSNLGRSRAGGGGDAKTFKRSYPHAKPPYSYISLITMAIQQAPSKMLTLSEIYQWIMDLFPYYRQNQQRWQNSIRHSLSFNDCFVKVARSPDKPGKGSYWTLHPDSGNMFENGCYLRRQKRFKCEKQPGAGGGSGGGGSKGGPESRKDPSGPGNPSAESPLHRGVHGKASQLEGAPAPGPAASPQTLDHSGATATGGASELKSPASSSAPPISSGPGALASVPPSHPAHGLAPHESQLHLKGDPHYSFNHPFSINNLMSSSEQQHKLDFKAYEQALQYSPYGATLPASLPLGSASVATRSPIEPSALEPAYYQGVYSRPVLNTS
Setting: whole designed probe, mean of two concentrations, ends assumed
Shared flanks, not repeated: GTGAGCGGTGCCCATTGATGGGGAAC … TTTCACTGGGATCGTGGGGAC
AGGTTAAAGATTACATTCTAACCACACACCAGTCATACTCTGCTCCGGGAAAAACCTTAAGTACTTGTGACCTTCTGTCCCTAACTTAGATGTTGTTTACTTTCAGTTTACATACAGTGCAAACACCAGGGTGTACATGATTTTCAAGTCAAAAAAGATAAGGACTAATCCAGAAAGGAGAAGGAATTCTGTT: 0.381 ratio
TAAAATATTTAGATAAACTTAGATCCACTGTAGCTTGAAATTGTAATTTTCCCAGAGATTTCTATGGAATTAATTTTGTAAGAAACTAATATGTAATCTTGAATGCTAATTTATAGATGCTTTTGCTTTTATCAGTAATATTTAATGTAGTTCTCTTCTATTTTTTGAAAATGATTACCTTGCTAAAGACATT: -0.024 ratio
GTCATTTATTTCATGTTGTCCTGAGATTGGATCTAAACTTTGAGCTCCTAATCATTGCTCAGATTGTGTGGCCTCGTAAGATTGTGCGTAATAAGTAATCTAGCATCTGTACACTTGTTAACTTAATGAGCTTCTGTATGTGACACTTTAAGCCTTTTTAAAAATTAAGTGCTGGGCTATGCTTGGTGTCTCA: -0.036 ratio
ACATTTGACAAACTTCAACACCCTTTCATGACAAAAACACTTATAGAAGGAAACAACCTCAACATAATAAAAGCCATATATGAAAAACCCACAGCAAACATCACACTCCATGGTGAACGTCTGAAAGCTTTTTCTCTAAAAATCAAGAACAAGGCAAAGATGCTCAATTTCACCACTTCTATTCAACGTAGTT: -0.00145 ratio
CTCTGAATGCAGATCACAATCTTTGTTAGTCATCTTTATCTTACTGGTTACTTTGCTACTCAAAGTACACATTTCCTATGGTGGAAACTCCCTTGTTTACTTATTCTTCCTGACCCAGGTTTAAAAGGCCTGCCTAACCATCTCAGTAGGCTTTTCCTAGCTGATATCCTTCTGAGCTGTGGTAGAGAAAGGG: 0.403 ratio
ATCTTCCCCCTCTTCCTTGCCCCACCAGCTCACCTACGGGGGTTATTTGCACAAAGGAAAATAAATAAAGCCGGCATTCGTTAACGCAGTTCACGCGCATACTGCTGTTTGCTCTGGATCTAACATGGTCCTTTGGCGACGCCAGGCTCCGGGAGAGCAAAGCACCGTGTCAGGGCCATGATCCGGGCTCGCC: 0.386 ratio
ATCTTCCCCCTCTTCCTTGCCCCACCAGCTCACCTACGGGGGTTATTTGCAGATAGGAAAATAAATAAAGCCGGCATTCGTTAACCCTCTTCACGCGCATACTGCTGTTTGCTCTGCATCTAACATGGTCCTTACGCGACGCCAGGCTCCGGGAGAGCAAAGCACCGTGTCAGGCGCATGATCCGGGCTCGCC: 0.349 ratio
GTTGCAGTTAGCTGCCTGACCCCAACATTACTTGGAGAAAGATTAGATTCTTAATAGGCTCTGATGGTTCACTGCATAACTTCTGAACTTTCCATGTTTGCTTTGACTATGTACGCACTCTGGGACTGGATTTTTAGTTCTCGAATTTAAACAAGAAACAAAACTGTAAAGAACAGCTCTCTGGGATTCCTCT: 0.189 ratio

Block 3 — technique: DHFR PCA, deep sequencing; matrix: yeast; together with: (+)-ABA 1.4 µM; reference: wild-type fitted maximum; direction: higher = stronger binding; quantity: relative binding score
Target: ABI1, truncated, D143A, DHFR fusion (Arabidopsis thaliana)
Setting: methotrexate growth selection, single substitutions
Starting sequence: PYL1, truncated, DHFR fusion (Arabidopsis thaliana); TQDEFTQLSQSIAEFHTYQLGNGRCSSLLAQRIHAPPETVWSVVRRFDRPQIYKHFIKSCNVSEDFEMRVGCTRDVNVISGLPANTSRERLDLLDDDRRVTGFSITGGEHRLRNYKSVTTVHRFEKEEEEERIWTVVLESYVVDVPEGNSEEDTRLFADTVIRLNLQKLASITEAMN; partner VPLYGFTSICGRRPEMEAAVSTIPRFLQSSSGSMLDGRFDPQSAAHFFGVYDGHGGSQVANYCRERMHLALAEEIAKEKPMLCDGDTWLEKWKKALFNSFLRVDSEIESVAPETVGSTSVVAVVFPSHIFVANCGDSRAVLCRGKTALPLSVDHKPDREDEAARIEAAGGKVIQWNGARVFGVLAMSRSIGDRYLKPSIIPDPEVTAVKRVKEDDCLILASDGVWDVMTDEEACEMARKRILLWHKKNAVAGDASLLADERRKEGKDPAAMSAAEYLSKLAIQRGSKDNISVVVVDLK
R98M: 36.8%
D92I: 5.03%
R74D: -2.44%
D144P: -19.3%
F5L: 74.7%
A13N: 40.4%
R111F: 3.57%
G21L: 21.6%
A13T: 41.4%
T1Q: 61.1%
T101G: -8.27%
N165S: 9.65%
H34L: 47.8%
R163H: 13.2%
L93Y: 35.8%
Q10V: 46.7%
T101K: 3.46%

Block 4 — target: CCNB1, cyclin fold, Cln2 fusion (human); technique: yeast growth competition, sequencing; matrix: yeast; setting: weak parent motif; reference: not given; direction: higher = stronger binding; quantity: normalised enrichment score
Starting sequence: CDC6 docking peptide (human); TLKGRRLVFDNQL
TLVGRRLVFDNQL [K3V]: 0.539
TSKGRRLVFDNQL [L2S]: -0.588
TLKGRRLVFDNHL [Q12H]: 0.235
TLKGRRLCFDNQL [V8C]: 1.08
TFKGRRLVFDNQL [L2F]: -0.248
TLKGVRLVFDNQL [R5V]: 0.418
TLKGMRLVFDNQL [R5M]: 0.234
TLQGRRLVFDNQL [K3Q]: 0.313
TLKGERLVFDNQL [R5E]: -0.306
TLKGRRLVFVNQL [D10V]: 0.024
TLKGRRLVFDFQL [N11F]: 0.608
TLKGRRLVFSNQL [D10S]: 0.552
TLKGRRLVFDNWL [Q12W]: 1.01
TLKGRRLVFDNVL [Q12V]: 0.471
TLKGRRLVFDNQR [L13R]: 0.758
TLKGRRKVFDNQL [L7K]: 1.08

Block 5 — technique: RNA Bind-n-Seq; molecule type: RNA; matrix: in vitro; concentration: not given; reference: input RNA pool; direction: higher = stronger binding; quantity: bound/input enrichment
Target: RING finger protein unkempt homolog, zinc fingers 1-6, GST-SBP tag (UNK, Homo sapiens, UniProt Q9C0B0, residues 30-357)
UniProt Q9C0B0, sequence (30-357, looked up): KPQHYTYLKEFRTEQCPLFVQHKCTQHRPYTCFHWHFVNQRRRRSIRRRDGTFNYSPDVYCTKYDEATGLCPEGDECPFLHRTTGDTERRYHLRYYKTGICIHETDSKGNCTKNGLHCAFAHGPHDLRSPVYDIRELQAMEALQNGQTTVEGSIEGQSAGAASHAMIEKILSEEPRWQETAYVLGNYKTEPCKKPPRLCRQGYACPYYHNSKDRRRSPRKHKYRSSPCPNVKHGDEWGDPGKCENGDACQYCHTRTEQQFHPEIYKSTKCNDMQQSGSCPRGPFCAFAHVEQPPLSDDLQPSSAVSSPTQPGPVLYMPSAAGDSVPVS
Setting: RNA with constant flanks, human and mouse sites, ends assumed
Shared flanks, not repeated: GGGAGUUCUACAGUCCGACGAUC … CAACAGAGGAUUGAGCAUCA
CGGCAUGCCCAGGGGGGUACAUGGUAUGGAGUAGACAUCAACAACGAGGACAUUGCUGACAACUUUGAAGCUUUCGUGUGGGAGCCAGCUAUGGUGCGGAUCAAUGCGCUGACAGCAGCC: 0.291 ratio
GAGGGAGGAACAGCAGUAGCAACAUCAUCAUUAACAGCAGAUAAUGAUUUUAAACCUGUGGGUAUUGGUCUACCCCAUUCAGAAAACAACCAAGAUAAAGGCCUGCCUCGGCCAGAUAAU: 0.537 ratio
UCUACGCCUGUGGAUGAUCGUAUUUCUUUGGAACAACCACCAAAUGGAAGUGACACCCCCAAUCCAGAGAAAUAUCAAGAAUCACCUGGAAUCCAGAUGAAGACAAGACUUAAAGAGGGG: 0.156 ratio
GGGAUUUUCAUGUUAACUUUUUUCAUGGCAUUCCUCUUUAACUGGAUUGGGUUUUUCCUGUCUUUUUGCCUGACCACUUCAGCUGCAGGAAGGUAUGGGGCCAUUUCAGGAUUUGGUCUC: 0.157 ratio
CUUGGAACAGGUAAAAUGCUUUUUCUUAUUAAUAUAAUUAUAAAACAGUAUUUUAUGUAACAGCUAUUCCCAUAUUCUAGGAGUGGCCUAAGAAAUGCGUGUUUCAGUGACUAGAUUAUA: 0.938 ratio
GCUGCACCACCUGGCACGGGCCAGGCGUCCGGGGAGAGAAGAUGUUUUCCCGGCUAAGAGCUGUUACCACUCCUUGUACCUUGACCUGCCGCCGAGUGCACCUGAAAGAGAAGGGCAAGC: 0.126 ratio
CAGAGAUGUAUACCUGACCUUUCAGCCCUCAAUGGUACCUGGACGCCAGGAAGUAGGAUGAAGUUUGAAGAUGGAAGUGGGCAGACCAGGACUAUGCUAGAAUUCAGGGAGGCUGCGAAC: 0.49 ratio
UAAGAAAAGAAGGGCUAAAAGAUGAGGAAGAUUUCUUUGAUUUUAAAGCUGGAGAAGAAGUUCUGGCUCGUUGGACAGACUGUCGCUAUUACCCUGCCAAGAUUGAAGCAAUUAACAAAG: 0.2 ratio
CGGGGAGCUUUCUGUGAAGUGAGACCAGAUGAUAAAAGAAUUCUGGAAUUUUACAGCAAGUUAGGAUGUUUUGAAAUUGCAAAAAUGGAAGGAUUUCCAAAGGAUGUGGUUAUACUUGGU: 0.769 ratio
GAGAGCCCAACCACUCCUCUGCUAGAUGACAUGGAUGGCUCUCAAGACAGCCCUAUCUUUAUGUAUGCCCCUGAGUUCAAGUUCAUGCCACCACCGACUUAUACUGAGGUGGAUCCCUGC: 0.133 ratio
CCGCCAUGAAUGAGGAAUACGACGUGAUCGUGCUGGGCACCGGCCUGACGUUAUACAAAAGGUUUAAAUUACCAGGACAACCGCCAGCAUCAAUGGGAAGAGGAAGAGACUGGAAUGUUG: 0.388 ratio

For quick reference, copied from above (block 5):
CGGCAUGCCCAGGGGGGUACAUGGUAUGGAGUAGACAUCAACAACGAGGACAUUGCUGACAACUUUGAAGCUUUCGUGUGGGAGCCAGCUAUGGUGCGGAUCAAUGCGCUGACAGCAGCC: 0.291 ratio
GAGGGAGGAACAGCAGUAGCAACAUCAUCAUUAACAGCAGAUAAUGAUUUUAAACCUGUGGGUAUUGGUCUACCCCAUUCAGAAAACAACCAAGAUAAAGGCCUGCCUCGGCCAGAUAAU: 0.537 ratio
UCUACGCCUGUGGAUGAUCGUAUUUCUUUGGAACAACCACCAAAUGGAAGUGACACCCCCAAUCCAGAGAAAUAUCAAGAAUCACCUGGAAUCCAGAUGAAGACAAGACUUAAAGAGGGG: 0.156 ratio
GGGAUUUUCAUGUUAACUUUUUUCAUGGCAUUCCUCUUUAACUGGAUUGGGUUUUUCCUGUCUUUUUGCCUGACCACUUCAGCUGCAGGAAGGUAUGGGGCCAUUUCAGGAUUUGGUCUC: 0.157 ratio
CUUGGAACAGGUAAAAUGCUUUUUCUUAUUAAUAUAAUUAUAAAACAGUAUUUUAUGUAACAGCUAUUCCCAUAUUCUAGGAGUGGCCUAAGAAAUGCGUGUUUCAGUGACUAGAUUAUA: 0.938 ratio
GCUGCACCACCUGGCACGGGCCAGGCGUCCGGGGAGAGAAGAUGUUUUCCCGGCUAAGAGCUGUUACCACUCCUUGUACCUUGACCUGCCGCCGAGUGCACCUGAAAGAGAAGGGCAAGC: 0.126 ratio
CAGAGAUGUAUACCUGACCUUUCAGCCCUCAAUGGUACCUGGACGCCAGGAAGUAGGAUGAAGUUUGAAGAUGGAAGUGGGCAGACCAGGACUAUGCUAGAAUUCAGGGAGGCUGCGAAC: 0.49 ratio
UAAGAAAAGAAGGGCUAAAAGAUGAGGAAGAUUUCUUUGAUUUUAAAGCUGGAGAAGAAGUUCUGGCUCGUUGGACAGACUGUCGCUAUUACCCUGCCAAGAUUGAAGCAAUUAACAAAG: 0.2 ratio
